Published values gathered from unrelated publications.
Lines come from different studies, so protocols differ. “And” joins repeats or separate records; there may be more than shown. ± gives the spread as reported.
ALOX5: Polyunsaturated fatty acid 5-lipoxygenase (ALOX5, Homo sapiens, UniProt P09917)
Grin1/Grin2b: Glutamate NMDA receptor; Grin1/Grin2b (Grin1/Grin2b, Rattus norvegicus, UniProt P35439+Q00960)
NQO2: Ribosyldihydronicotinamide dehydrogenase [quinone] (NQO2, Homo sapiens, UniProt P16083)

Sequences of proteins named here, by UniProt entry; tags and fusion partners are left off. A change or cut given only in a name is not applied to a line headed by its entry. Residues count along the entry.
UniProt P09917, whole entry: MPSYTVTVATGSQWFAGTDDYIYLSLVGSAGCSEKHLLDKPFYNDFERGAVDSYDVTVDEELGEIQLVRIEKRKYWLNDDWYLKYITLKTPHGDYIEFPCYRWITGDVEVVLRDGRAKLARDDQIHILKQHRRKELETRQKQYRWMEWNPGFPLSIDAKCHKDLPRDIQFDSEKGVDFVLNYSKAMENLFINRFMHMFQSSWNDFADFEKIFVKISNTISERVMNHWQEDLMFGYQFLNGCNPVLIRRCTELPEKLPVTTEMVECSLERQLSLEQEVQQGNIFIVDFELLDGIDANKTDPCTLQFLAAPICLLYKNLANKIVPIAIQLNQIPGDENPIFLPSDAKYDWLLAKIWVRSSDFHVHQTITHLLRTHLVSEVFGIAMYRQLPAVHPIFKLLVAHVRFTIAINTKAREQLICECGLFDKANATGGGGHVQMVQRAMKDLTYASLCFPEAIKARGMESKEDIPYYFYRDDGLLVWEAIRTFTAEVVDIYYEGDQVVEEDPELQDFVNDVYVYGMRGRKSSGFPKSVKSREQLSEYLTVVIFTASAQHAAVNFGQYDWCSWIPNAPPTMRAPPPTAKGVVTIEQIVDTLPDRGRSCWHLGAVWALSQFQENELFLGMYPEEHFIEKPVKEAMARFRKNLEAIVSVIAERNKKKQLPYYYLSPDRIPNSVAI
UniProt Q00960, 27-1482 limits assumed: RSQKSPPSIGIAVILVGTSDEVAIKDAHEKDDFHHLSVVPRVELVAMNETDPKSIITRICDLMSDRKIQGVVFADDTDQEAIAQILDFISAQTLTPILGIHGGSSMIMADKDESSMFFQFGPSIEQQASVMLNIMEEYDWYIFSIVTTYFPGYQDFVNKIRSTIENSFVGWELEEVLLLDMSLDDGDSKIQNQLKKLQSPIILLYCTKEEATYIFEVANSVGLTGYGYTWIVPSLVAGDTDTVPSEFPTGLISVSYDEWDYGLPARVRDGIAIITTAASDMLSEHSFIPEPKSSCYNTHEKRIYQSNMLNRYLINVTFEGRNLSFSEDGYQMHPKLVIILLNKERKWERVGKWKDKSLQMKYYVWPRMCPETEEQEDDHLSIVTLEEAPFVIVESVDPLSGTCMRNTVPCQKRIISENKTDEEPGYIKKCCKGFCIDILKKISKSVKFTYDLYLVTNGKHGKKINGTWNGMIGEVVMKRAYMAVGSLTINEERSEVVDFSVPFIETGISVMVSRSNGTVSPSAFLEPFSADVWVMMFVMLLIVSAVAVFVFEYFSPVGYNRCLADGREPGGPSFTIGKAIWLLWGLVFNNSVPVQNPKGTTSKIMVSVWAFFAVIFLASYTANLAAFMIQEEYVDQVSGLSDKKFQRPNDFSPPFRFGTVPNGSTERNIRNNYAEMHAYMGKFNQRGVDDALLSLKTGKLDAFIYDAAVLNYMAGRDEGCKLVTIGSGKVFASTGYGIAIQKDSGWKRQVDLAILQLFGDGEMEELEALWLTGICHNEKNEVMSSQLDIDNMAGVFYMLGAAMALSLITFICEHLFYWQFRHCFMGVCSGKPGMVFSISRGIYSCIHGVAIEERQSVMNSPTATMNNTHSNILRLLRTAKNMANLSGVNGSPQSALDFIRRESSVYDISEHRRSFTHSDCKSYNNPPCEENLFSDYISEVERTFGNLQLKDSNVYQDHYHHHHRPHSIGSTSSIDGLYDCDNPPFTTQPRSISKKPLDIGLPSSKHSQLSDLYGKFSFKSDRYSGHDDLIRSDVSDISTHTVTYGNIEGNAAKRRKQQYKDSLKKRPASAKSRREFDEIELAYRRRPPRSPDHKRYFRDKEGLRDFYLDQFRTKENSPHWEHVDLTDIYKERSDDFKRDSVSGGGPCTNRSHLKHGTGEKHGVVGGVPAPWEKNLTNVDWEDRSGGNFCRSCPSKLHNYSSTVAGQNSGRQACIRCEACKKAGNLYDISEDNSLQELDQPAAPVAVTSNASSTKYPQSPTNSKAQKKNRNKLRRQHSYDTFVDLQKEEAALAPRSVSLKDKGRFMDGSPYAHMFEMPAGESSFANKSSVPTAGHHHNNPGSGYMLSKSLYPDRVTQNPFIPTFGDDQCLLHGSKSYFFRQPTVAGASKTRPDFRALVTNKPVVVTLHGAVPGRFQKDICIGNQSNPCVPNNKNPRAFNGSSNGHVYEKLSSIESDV
UniProt P16083, whole entry: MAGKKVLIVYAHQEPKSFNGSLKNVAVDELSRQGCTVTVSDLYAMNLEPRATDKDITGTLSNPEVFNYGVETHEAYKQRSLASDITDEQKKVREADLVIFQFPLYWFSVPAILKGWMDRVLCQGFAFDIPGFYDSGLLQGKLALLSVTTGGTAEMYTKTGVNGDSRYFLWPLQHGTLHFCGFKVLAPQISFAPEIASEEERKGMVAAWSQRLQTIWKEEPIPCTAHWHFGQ
UniProt P10826, 183-417 limits assumed: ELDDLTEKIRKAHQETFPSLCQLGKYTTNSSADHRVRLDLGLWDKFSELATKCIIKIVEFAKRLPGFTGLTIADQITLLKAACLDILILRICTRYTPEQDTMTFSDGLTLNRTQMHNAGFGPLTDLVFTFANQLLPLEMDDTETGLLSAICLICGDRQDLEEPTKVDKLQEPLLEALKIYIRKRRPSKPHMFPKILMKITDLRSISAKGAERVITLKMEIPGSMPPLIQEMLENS
UniProt Q08881, whole entry: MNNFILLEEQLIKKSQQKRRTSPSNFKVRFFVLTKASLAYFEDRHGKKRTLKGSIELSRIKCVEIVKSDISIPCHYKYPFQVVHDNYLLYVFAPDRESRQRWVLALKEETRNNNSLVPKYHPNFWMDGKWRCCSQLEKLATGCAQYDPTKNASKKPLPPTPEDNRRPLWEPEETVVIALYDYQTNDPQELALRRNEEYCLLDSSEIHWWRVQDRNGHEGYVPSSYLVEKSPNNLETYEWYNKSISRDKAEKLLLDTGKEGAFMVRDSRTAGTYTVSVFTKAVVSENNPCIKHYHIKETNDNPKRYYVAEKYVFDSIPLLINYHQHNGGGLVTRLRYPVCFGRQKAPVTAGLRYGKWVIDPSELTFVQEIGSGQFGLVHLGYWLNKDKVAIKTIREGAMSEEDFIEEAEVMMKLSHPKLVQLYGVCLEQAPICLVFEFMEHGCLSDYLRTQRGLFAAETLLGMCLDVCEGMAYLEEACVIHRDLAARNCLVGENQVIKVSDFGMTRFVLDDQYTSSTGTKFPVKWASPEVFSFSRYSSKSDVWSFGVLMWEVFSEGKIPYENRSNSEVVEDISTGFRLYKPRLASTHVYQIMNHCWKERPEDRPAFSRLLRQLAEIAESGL
UniProt P07711, 114-333 limits assumed: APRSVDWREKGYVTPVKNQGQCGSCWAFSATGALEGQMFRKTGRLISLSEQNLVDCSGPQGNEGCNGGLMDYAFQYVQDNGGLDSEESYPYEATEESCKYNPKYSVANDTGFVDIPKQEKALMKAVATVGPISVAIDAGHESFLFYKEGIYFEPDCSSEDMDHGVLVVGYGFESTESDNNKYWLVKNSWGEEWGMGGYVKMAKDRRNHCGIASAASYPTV
UniProt P48729, whole entry: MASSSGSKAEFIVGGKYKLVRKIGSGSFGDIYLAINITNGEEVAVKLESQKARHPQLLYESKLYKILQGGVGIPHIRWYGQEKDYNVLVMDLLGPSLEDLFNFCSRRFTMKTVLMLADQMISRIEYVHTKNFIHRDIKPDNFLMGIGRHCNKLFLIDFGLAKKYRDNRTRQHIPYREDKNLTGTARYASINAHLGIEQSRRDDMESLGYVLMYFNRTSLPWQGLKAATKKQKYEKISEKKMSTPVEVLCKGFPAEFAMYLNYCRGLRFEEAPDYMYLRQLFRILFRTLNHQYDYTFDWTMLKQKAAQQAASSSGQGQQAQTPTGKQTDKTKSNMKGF
UniProt P28072, 35-239 limits assumed: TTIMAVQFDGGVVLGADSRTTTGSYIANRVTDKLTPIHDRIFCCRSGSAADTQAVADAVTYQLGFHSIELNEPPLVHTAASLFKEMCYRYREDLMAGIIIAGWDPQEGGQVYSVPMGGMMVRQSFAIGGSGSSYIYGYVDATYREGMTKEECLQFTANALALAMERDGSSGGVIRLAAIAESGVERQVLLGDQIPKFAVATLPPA
UniProt P18440, whole entry: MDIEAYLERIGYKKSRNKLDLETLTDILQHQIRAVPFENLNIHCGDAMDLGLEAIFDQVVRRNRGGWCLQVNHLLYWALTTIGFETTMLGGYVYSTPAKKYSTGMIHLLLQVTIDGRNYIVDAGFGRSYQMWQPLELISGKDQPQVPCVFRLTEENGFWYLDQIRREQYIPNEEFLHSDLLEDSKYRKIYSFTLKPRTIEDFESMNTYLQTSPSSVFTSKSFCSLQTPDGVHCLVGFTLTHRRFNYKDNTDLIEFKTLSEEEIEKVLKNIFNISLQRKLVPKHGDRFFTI
UniProt O15151, 23-111 limits assumed: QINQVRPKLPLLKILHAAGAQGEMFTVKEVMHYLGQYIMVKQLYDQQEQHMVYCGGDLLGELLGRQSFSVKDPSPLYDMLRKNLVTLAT
UniProt Q16539, whole entry: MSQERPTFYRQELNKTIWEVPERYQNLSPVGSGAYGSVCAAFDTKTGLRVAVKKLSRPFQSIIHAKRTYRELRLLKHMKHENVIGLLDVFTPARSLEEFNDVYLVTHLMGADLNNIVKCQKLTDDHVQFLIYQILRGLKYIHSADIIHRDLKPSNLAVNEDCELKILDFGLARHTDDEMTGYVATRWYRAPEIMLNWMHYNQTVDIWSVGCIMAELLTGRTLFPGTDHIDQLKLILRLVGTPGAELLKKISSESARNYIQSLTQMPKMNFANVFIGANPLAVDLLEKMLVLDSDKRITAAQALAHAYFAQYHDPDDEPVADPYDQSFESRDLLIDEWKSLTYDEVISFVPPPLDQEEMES
UniProt Q00959, 23-1464 limits assumed: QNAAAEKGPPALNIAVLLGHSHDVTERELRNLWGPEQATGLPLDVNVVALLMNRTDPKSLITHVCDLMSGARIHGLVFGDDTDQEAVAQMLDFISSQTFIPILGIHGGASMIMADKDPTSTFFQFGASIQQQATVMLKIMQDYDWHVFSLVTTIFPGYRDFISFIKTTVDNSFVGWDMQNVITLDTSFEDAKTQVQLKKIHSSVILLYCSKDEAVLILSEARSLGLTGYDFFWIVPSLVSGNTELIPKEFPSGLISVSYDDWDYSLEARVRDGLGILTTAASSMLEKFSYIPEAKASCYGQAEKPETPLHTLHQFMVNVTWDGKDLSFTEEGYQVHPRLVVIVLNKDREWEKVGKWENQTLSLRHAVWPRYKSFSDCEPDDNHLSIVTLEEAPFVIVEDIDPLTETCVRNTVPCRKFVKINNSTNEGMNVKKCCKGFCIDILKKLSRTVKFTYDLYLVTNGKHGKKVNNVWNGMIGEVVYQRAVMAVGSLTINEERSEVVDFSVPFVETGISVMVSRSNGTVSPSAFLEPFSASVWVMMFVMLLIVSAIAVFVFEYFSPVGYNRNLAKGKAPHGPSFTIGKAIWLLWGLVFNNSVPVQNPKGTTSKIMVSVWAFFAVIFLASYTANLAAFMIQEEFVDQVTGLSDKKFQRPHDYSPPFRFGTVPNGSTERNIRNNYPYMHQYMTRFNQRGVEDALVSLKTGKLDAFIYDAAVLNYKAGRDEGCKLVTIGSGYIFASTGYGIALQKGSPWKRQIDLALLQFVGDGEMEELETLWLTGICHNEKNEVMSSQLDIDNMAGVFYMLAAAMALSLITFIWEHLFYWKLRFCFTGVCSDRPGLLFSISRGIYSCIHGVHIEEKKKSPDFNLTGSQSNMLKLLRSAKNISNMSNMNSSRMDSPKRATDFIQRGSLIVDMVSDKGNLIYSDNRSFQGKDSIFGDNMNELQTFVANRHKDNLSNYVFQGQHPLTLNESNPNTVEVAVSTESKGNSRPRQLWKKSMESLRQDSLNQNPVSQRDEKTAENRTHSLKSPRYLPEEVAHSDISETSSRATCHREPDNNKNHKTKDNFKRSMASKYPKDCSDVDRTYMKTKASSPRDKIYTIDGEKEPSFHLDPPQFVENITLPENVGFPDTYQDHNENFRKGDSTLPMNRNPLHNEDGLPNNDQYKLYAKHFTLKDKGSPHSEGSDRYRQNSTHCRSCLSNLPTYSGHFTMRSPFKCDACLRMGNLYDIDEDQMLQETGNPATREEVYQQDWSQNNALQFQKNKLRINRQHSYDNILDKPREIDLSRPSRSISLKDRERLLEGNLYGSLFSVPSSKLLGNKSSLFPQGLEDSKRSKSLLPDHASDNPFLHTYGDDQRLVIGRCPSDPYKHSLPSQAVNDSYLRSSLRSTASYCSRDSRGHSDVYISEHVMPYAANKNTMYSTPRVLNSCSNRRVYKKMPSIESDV

CCOC(=O)C(C)Oc1ccc2c(=O)n(CC(=O)Nc3ccc4c(c3)OCCO4)ccc2c1 (stereo not shown)  IC50 (RARB (Homo sapiens, UniProt P10826); inverse agonist, Gal4 UAS-luciferase reporter; HEK293T cells): 450 nM
O=C(NCc1ccco1)C1CN(c2cc(-c3cc(F)cc(F)c3)n[nH]c2=O)C1  IC50 (ITK (Homo sapiens, UniProt Q08881); kinase activity, inhibitor, ADP-Glo): 190 nM
COc1cc(O)ccc1C(=O)C=Cc1ccc(O)cc1  IC50 (ALOX5; 5-LOX product formation, RP-HPLC; human PMNL; with: A23187 and arachidonic acid): 6500 ± 400 nM
CC/C=C\C/C=C\CCC/C=C/C=C/C=C\CCCC(=O)O  IC50 (DNA polymerase (Brassica oleracea var. botrytis, UniProt A0A0D3D890); enzyme activity, inhibitor): > 100000 nM
CON(C1CC[C@@]2(C)[C@H](CC[C@@H]3[C@@H]2CC[C@]2(C)[C@@H](c4ccc(=O)oc4)CC[C@]32O)C1)C1OCC(O)C(O)C1O (stereo partly shown)  IC50 (Sodium/potassium-transporting ATPase subunit alpha-1 (atp1a1, Xenopus laevis, UniProt Q92123); Na+/K+ pump current, inhibitor, two-electrode voltage clamp, item: endogenous pump current; uninjected Xenopus laevis oocytes; holding potential -60 mV): ~50 nM and 47 nM
CN1C(=O)CCc2cc(CNC(C)(C)[C@@H](O)c3ccccc3)ccc21  AUC(0-inf) (male CD-1 mouse, plasma; subcutaneous, 10 mg/kg): 14200 ng·min/mL/g
CCc1ccccc1NC(=O)CSC(=O)NNC(=O)[C@@H](Cc1c[nH]c2ccccc12)NC(=O)OC(C)(C)C  IC50 (Procathepsin L (CTSL, Homo sapiens, UniProt P07711); enzyme activity, inhibitor; with: Z-Phe-Arg-AMC substrate): 33000 ± 1750 nM
Cc1ccc(-c2n[nH]cc2-c2ccnc3ccccc23)nc1  IC50 (CSNK1A1 (Homo sapiens, UniProt P48729); kinase activity, inhibitor, ADP-Glo; with: ATP 10 µM): > 15000 nM
COc1cc(O)c([C@@H](CCc2ccc(O)cc2OC)c2ccc(O)cc2)cc1CCC(=O)c1ccc(O)cc1  IC50 (ALOX5; enzyme activity; cell-free): 590 nM
CC(C)C[C@H](NC(=O)[C@@H](NC(=O)[C@H](CC(C)C)NC(=O)[C@H](CS)NC(=O)CNS(=O)(=O)c1cccc2c(N(C)C)cccc12)C(C)C)C(=O)O  Km (geranylgeranyltransferase type-I (Rattus norvegicus, UniProt P53610+Q04631); substrate, fluorescence; 30 °C, with: GTP 30 µM and GGPP 10 µM): 2.1 ± 0.9 µM
N#Cc1c(-c2ccc(Cl)cc2Cl)n(-c2nc(-c3ccc(Cl)cc3)c3c(NC(=O)c4ccccc4)nnc-3[nH]2)[nH]c1=O  cell growth (U-251; SRB; 10 µM): 6.8%
COc1ccc2c(c1)O[C@@H](c1ccc(O)cc1)CC2  IC50 (ALOX5; enzyme activity; cell-free): 5700 nM
CCCCCN(CCc1ccc(Cl)c(Cl)c1)C[C@H](O)COc1ccc(NS(C)(=O)=O)cc1  IC50 (Grin1/Grin2b; pH 6.9): 160 nM
COc1ccc(C=CC(=O)c2ccc(O)cc2)c(O)c1  IC50 (ALOX5; 5-LOX product formation, RP-HPLC; human PMNL; with: A23187 and arachidonic acid): 4400 ± 700 nM
COc1ccc2[nH]c(C(=O)Nc3ccc(C(CC(C)C)=NNC(=N)N)cc3)cc2c1  IC50 (CHEK2 (Homo sapiens, UniProt O96017); kinase activity, inhibitor, IMAP fluorescence polarization): 0.29 ± 0.14 nM
CC(C)CC(NC(=O)C(Cc1ccccc1)NC(=O)c1cnc(C(=O)NC(Cc2ccccc2)C(=O)NC(CC(C)C)B(O)O)cn1)B(O)O (stereo not shown)  IC50 (PSMB6 (Homo sapiens, UniProt P28072); caspase-like activity, inhibitor, Proteasome-Glo; U-266; 24 h): 13.4 ± 0.56 nM
CC(C)N(CCc1ccc(Cl)c(Cl)c1)C[C@H](O)COc1ccc(NS(C)(=O)=O)cc1  IC50 (Grin1/Grin2b; pH 7.6): 620 nM
CCOC(=O)Oc1ccc2c(c1OC(=O)OCC)C(=O)c1ccccc1C2=O  IC50 (NAT1 (Homo sapiens, UniProt P18440); enzyme activity, inhibitor; recombinant in yeast lysate; with: 10 µM 4-aminobiphenyl and 100 µM acetyl-CoA): 996 ± 200 nM
COc1ccc(C2=N[C@@H](c3cccc(Cl)c3)[C@@H](c3ccc(Cl)cc3)N2C(=O)N2CCNC(=O)C2)c(OC(C)C)c1 (relative stereo)  IC50 (Protein Mdm4, N-terminal domain (MDM4, Homo sapiens, UniProt O15151); MdmX-p53 binding, fluorescence polarization; MdmX residues 23-111): 7000 nM
CC(C)C[C@H](NC(=O)[C@H](C)NC(=O)[C@H](CCCNC(=N)N)NC(=O)[C@H](CCCNC(=N)N)NC(=O)[C@H](CCCNC(=N)N)NC(=O)[C@H](C)NC(=O)[C@H](CC(C)C)NC(=O)[C@H](CCCNC(=N)N)NC(=O)[C@H](CO)NC(=O)[C@H](CCCCN)NC(=O)[C@H](CO)NC(=O)Cn1cc(COC(=O)[C@]2(C)C=C(C(=O)OC(C)(C)C)C(=O)CC2)nn1)C(=O)O  remaining activity (MAPK14 (Homo sapiens, UniProt Q16539); enzyme activity, inhibitor, D-SENSOR kinase; 2.469 µM, unit not given; relative to: untreated): 0.0775 and 0.101 and 0.0951
CCCN(CCc1ccc(Cl)c(Cl)c1)C[C@H](O)COc1ccc(NS(C)(=O)=O)cc1  IC50 (Grin1/Grin2b; pH 7.6): 480 nM
C=C(C)C(=O)Nc1ccc(-c2c(-c3ccc(Oc4nccc(C)n4)c(F)c3)c3c(N)ncnc3n2C)cc1  area over GR curve (MFE-280; cell growth, CellTiter-Glo; 120 h, unit not given; relative to: untreated growth rate, higher = stronger inhibition): 0.498
CN(C)CCNC(=O)c1cc([N+](=O)[O-])cc2ccc(-c3ccccc3)nc12  IC50 (NQO2; enzyme activity, inhibitor; with: 200 µM NRH, DCPIP, 2 µM BSA): 40 ± 4 nM
CCCCNC(=O)C(=O)NCCCC/C=C\CCCCCCC1=NOS(=O)N1 (stereo not shown)  IC50 (EPHX2 (Homo sapiens, UniProt P34913); epoxide hydrolase activity, inhibitor; 5 min preincubation, pH 7.0, 30 °C): > 500 nM
CCN(CC)CCCC(C)Nc1cc(-c2ccccc2)nc2cc(OC)ccc12 (stereo not shown)  IC50 (NQO2; enzyme activity, inhibitor; no BSA, with: 200 µM NRH, DCPIP): 550 ± 50 nM
CCOC(=O)c1c(-c2ccc(Cl)cc2Cl)n(-c2nc(-c3ccc(Cl)cc3)c3c(NC(=O)c4ccccc4)nnc-3[nH]2)[nH]c1=O  cell growth (U-251; SRB; 10 µM): 2.68%
CN(C)CCNC(=O)c1cccc2ccc(-c3ccc(-c4ccccc4)cc3)nc12  IC50 (NQO2; enzyme activity, inhibitor; no BSA, with: 200 µM NRH, DCPIP): 70 ± 10 nM
NC12CC3CC(F)(CC(C1)c1ccccc13)C2  IC50 (Glutamate NMDA receptor; Grin1/Grin2a (Grin1/Grin2a, Rattus norvegicus, UniProt P35439+Q00959); ion current, channel blocker, whole-cell patch clamp; tsA201 cells; 0 mM Mg2+, -65 mV, with: 1 mM glutamate): 4400 ± 150 nM
